Assay results from different studies.
Compare with care: the assays were run in different laboratories. Numbers after ± are the reported error.

SMILES | tested on | assay | conditions | scale | endpoint | result
CC(C)NCC(O)c1ccc(O)c(O)c1 (centres unmarked) | mouse ventricular cardiomyocytes | – | dose not given, 0.155 s | – | sarcomere length | 1.59 µm
c1ccc2[nH]ccc2c1 | HCT-8 | RNA-seq, refers to: SLC6A9 | concentration not given | – | mRNA level, LS mean | 43.5 counts per million
Cc1ncc(CSSCc2cnc(C)c(O)c2CO)c(CO)c1O.Cl.Cl | Nedd8-cullin1 interaction | neddylation, AlphaScreen | 100 µM | – | inhibition | 13.7%
C[C@H](Nc1ccc2c(c1)OCCn1cc(N3C(=O)OC[C@H]3C(F)F)nc1-2)C(N)=O | NCI-H460 | cell growth, CellTiter-Glo | 120 h | – | Hill coefficient GR curve | 0.555
CCn1cc(-c2cc(Cn3ccoc3=N)cc3c2CCN([C@@H](C)c2cc(OC)ccn2)C3=O)c(C(F)(F)F)n1 | Toledo | cell growth | 120 h | – | EC50 | 188 nM
O=c1[nH]nc(OCCCc2ccc(Cl)cc2)c(NCc2cccnc2)c1Br | HEK-293T | RNA-seq GSEA, refers to: HALLMARK_GLYCOLYSIS | concentration not given | direction not given | normalized enrichment score | 1.34
Cc1cc(Nc2ncc(Cl)c(Nc3ccccc3S(=O)(=O)C(C)C)n2)c(OC(C)C)cc1C1CCNCC1 | CLB-BAR | phosphoproteomics LC-MS/MS, refers to: PDZD11 phosphorylation | 200 nM, 60 min | baseline: untreated | log2 fold change | -2.65
CSCC[C@H](NC(=O)[C@H](Cc1ccc(OS(=O)(=O)O)cc1)NC(=O)[C@@H](N)CC(=O)O)C(=O)NCC(=O)N[C@@H](Cc1c[nH]c2ccccc12)C(=O)N[C@@H](CCSC)C(=O)N[C@@H](CC(=O)O)C(=O)N[C@@H](Cc1ccccc1)C(N)=O | HEK293T control virus | agonist, GloSensor cAMP | 0.00512 nM, no receptor expressed | higher = more cAMP | cAMP accumulation | 0.173 a.u.
CC[C@@]1(O)C(=O)OCc2c1cc1n(c2=O)Cc2cc3c(CN(C)C)c(O)ccc3nc2-1 | HD-MB03 | cell growth | 168 h, DMSO | – | IC50 | 453 nM
CCCN1CCN(c2ccc3[nH]c(-c4ccc5[nH]c(-c6ccc(C(F)(F)F)cc6)nc5c4)nc3c2)CC1 | SN12C | SRB | 10 µM, 48 h | – | growth percent | -69.2%
Cc1nc(Nc2n[nH]c3c2CN(C(=O)N[C@H](CN(C)C)c2ccccc2)C3(C)C)c2sccc2n1 | HD-MB03 | cell growth | single agent | – | IC50 | 4.67 nM
O=C(COC(=O)c1ccccc1Nc1cccc(C(F)(F)F)c1)NNS(=O)(=O)c1ccccc1 | RAW264.7 | Western blot | concentration not given, 72 h, unit not given, added: LPS | baseline: control | mTOR protein level | 0.437
CC1=CC[C@H]2[C@@H]([C@@H]1CC[C@H]1[C@]3(C)CC[C@H](O)C(C)(C)O[C@H]3CC[C@]1(C)O)C(C)(C)CC[C@]2(C)O | KB-C2 (P-gp overexpressing) | drug efflux | 10 µM, 60 min | – | intracellular [3H]-paclitaxel remaining | 61%
CN(C)C/C=C/C(=O)Nc1ccc(C(=O)Nc2cccc(Nc3ncc(Cl)c(-c4c[nH]c5ccccc45)n3)c2)cc1 | HD-MB03 | cell growth | DMSO | – | IC50 | 14.9 nM
NNc1nc(-c2ccc(Cl)cc2)c2c(NC(=O)c3ccccc3)nnc-2[nH]1 | A549/ATCC | NCI60 SRB | 10 µM | – | growth percent | 102%
Nc1cc(N2CCCCC2)nc(N)[n+]1[O-] | Nedd8-cullin1 interaction | neddylation, AlphaScreen | 100 µM | – | inhibition | 14.5%
O=C(NOC[C@H](O)CO)c1ccc(F)c(F)c1Nc1ccc(I)cc1F | A-375 | – | 10 µM, 72 h | – | viability | 11.5%
COc1cnc2cccc(N3CCc4c(cc(Cn5ccnc5C)cc4-c4cn(C)nc4C(F)(F)F)C3=O)c2c1 | HCT-8 | cell growth, inhibitor | 120 h | – | EC50 | 2020 nM
CN(C)C(=O)c1cc2cnc(Nc3ccc(N4CCNCC4)cn3)nc2n1C1CCCC1 | HD-MB03 | cell growth | 168 h, single agent | – | IC50 | > 10000 nM
COc1ccc(Oc2ccc(CNCc3cnc4nc(N)nc(N)c4n3)cc2)cc1 | 786-O | high-content imaging, refers to: MitoTracker Red uptake | 10 µM | – | mitochondrial toxicity | -5.87 ± 28.9%
Cn1cc(-c2ccc(-c3cncc(Cl)c3N3CCC4(CCNC4=O)CC3)cc2)cn1 | COLO 205 | gene expression, microarray, refers to: OAS2 mRNA | concentration not given, 2 h | baseline: untreated cells | log2 fold change | 1.18
CCn1cc(-c2cc(Cn3ccnc3)cc3c2CCN([C@H](c2cc(OC)ccn2)C2CC2)C3=O)c(C(F)(F)F)n1 | BICR6 | cell growth | 120 h | – | EC50 | 835 nM
CCC(=O)O[C@]1(C(=O)SCF)[C@H](C)C[C@H]2[C@@H]3C[C@H](F)C4=CC(=O)C=C[C@]4(C)[C@@]3(F)[C@@H](O)C[C@@]21C | primary rat hippocampal/cortical neuron-glia cultures | – | 1 µM, added: 1 µM α-synuclein oligomers | – | reversal of trafficking deficit | -20.6%

Some of these lines once more:
SMILES | tested on | assay | conditions | scale | endpoint | result
COc1cnc2cccc(N3CCc4c(cc(Cn5ccnc5C)cc4-c4cn(C)nc4C(F)(F)F)C3=O)c2c1 | HCT-8 | cell growth, inhibitor | 120 h | – | EC50 | 2020 nM
CN(C)C(=O)c1cc2cnc(Nc3ccc(N4CCNCC4)cn3)nc2n1C1CCCC1 | HD-MB03 | cell growth | 168 h, single agent | – | IC50 | > 10000 nM
